Published values from different studies.
Numbered parts are unrelated; each lists some results of a single study. Positions count from the first letter of the parent shown.
Chain of UniProt Q9Y4K4 (whole entry, looked up): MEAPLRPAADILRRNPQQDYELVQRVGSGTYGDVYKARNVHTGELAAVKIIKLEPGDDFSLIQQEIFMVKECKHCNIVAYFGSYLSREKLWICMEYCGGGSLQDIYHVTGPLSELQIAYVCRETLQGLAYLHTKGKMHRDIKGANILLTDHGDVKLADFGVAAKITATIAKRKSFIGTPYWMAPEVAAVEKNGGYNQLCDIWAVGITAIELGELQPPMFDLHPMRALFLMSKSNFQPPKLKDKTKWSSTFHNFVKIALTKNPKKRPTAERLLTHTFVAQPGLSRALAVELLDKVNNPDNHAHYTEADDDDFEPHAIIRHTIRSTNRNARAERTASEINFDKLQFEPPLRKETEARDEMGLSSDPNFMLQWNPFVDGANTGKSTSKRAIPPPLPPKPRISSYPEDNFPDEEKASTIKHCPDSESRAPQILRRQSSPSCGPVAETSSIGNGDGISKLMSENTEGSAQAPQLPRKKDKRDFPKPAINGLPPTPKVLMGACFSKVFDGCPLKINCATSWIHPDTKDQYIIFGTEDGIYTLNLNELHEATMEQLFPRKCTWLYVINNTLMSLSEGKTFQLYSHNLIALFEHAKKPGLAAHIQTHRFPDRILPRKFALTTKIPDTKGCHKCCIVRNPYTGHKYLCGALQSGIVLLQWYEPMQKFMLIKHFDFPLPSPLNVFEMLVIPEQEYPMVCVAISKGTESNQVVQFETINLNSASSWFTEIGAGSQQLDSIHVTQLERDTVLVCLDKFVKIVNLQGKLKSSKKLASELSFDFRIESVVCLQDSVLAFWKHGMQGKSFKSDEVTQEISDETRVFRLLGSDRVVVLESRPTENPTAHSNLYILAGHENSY

Block 1 — method: protein-binding microarray; form: double-stranded DNA, one strand shown; sample: in vitro; tested at: 0.8 µM; setting: whole 60-bp probe, no competitor; reading: higher = stronger binding
Target: Centromere-binding protein 1, full length, N-terminal tag (CBF1, Saccharomyces cerevisiae, UniProt P17106, residues 1-351)
Chain of UniProt P17106 (whole entry, looked up): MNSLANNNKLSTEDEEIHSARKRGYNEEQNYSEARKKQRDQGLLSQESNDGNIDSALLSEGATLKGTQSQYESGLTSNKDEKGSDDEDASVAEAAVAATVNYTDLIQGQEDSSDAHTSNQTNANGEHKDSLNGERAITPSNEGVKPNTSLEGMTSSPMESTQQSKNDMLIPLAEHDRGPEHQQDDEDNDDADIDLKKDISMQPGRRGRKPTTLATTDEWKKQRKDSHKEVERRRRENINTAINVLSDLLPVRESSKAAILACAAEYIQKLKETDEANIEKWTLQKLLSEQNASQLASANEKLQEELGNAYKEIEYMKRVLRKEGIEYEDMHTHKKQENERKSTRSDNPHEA
Oligonucleotide | fluorescence intensity
GAAACTAGATTGCATCAGGTCCATAAAATGTTTTAGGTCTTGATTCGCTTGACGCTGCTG | 524 a.u.
CTACTGACACTTCCCCACGATATTTATCATTTTTTCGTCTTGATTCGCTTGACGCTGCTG | 504 a.u.
GAACCAATTGTTAATCACACCACCGATAGGCAATAGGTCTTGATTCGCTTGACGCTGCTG | 1310 a.u.
CCTAACTACTATAATCACGTGATATAGCTTCGTACAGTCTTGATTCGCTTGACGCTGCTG | 32900 a.u.
GAACACCCACTACATCAGCTCGATGATGAACCTTAGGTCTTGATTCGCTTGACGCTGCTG | 494 a.u.
GAACCGCTTAATGATCACGCACAAAAAAAAAAATAGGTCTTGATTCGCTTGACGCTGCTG | 1730 a.u.
GAAAACTGAGTTCCAAACGTGACAAGGTAAGTTTAGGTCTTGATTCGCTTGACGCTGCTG | 886 a.u.
GAATCTGGTACATAAGGTGAGTCATATTTACATTAGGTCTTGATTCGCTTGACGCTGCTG | 530 a.u.

Block 2 — target: BATF, bZIP domain (human); method: DHFR protein complementation; sample: yeast; relative to: wild-type JUN-FOS pair; reading: higher = stronger binding
Setting: single substitutions, most at no-binding floor
Starting sequence: JUN, bZIP domain (human); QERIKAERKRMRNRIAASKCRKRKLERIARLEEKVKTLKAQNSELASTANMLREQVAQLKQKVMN; partner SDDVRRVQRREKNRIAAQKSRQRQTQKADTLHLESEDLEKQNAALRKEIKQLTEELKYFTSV
Substitution | binding fitness [natural log]
K39P | -1.19
E33P | -0.774
K36W | -0.229
A49V | -0.0456
Q58P | -0.512
Q41S | -1.24
R30M | 0.0358
V35F | -0.194

Block 3 — method: DHFR PCA, dose-response; sample: yeast; setting: Hill fit, mean, not affinity; with: (+)-ABA, dose series; reading: lower = more sensitive
Target: ABI1, truncated, D143A, DHFR fusion (Arabidopsis thaliana, UniProt P49597)
Starting sequence: PYL1, truncated, DHFR fusion (Arabidopsis thaliana, UniProt Q8VZS8); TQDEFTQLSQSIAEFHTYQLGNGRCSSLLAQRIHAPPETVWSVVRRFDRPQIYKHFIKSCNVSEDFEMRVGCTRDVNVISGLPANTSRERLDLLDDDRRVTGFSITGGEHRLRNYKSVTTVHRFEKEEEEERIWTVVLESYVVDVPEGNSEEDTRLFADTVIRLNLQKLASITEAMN
Substitution | ABA EC50
S63G | 1.89 µM
N77I | 3.71 µM
R155T | 2.85 µM
R69V | 1.89 µM
R113F | 11.7 µM
L8P | 133 µM
E147W | 6.19 µM
R123M | 4.63 µM

Other studies, line by line
Compound | target | assay | conditions | how to read | quantity | result
c1ccc(-c2[nH]ncc2-c2ccnc3ccccc23)nc1 | Mitogen-activated protein kinase kinase kinase kinase 5 (MAP4K5, Homo sapiens, UniProt Q9Y4K4) | enzyme activity, inhibitor | 0.5 µM | relative to: control | remaining activity | 87.4%
